Published values collected from several papers.
A part holds a random share of what one study measured. “And” joins repeats or separate records; there may be more than shown.
UniProt Q96L34, sequence (whole entry, looked up): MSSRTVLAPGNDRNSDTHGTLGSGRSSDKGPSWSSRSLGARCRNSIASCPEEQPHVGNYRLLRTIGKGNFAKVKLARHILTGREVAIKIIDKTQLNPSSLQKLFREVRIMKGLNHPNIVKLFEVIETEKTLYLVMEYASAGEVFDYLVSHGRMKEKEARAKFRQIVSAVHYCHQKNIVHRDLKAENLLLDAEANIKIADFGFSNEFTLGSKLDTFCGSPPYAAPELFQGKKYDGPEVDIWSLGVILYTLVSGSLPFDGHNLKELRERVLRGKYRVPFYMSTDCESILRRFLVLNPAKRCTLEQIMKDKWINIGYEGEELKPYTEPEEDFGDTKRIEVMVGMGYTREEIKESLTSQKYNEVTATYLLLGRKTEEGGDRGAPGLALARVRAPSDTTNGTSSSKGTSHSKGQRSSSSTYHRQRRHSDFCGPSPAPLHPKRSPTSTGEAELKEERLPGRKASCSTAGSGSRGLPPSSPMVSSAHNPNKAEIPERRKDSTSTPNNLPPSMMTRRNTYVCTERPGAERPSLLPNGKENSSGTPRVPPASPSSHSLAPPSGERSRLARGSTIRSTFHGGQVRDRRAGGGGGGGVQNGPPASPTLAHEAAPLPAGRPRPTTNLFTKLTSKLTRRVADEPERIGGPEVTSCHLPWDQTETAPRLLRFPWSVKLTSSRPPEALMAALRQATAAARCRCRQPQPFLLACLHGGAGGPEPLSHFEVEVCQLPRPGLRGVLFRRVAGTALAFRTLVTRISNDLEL
UniProt Q9UQ88, sequence (whole entry, looked up): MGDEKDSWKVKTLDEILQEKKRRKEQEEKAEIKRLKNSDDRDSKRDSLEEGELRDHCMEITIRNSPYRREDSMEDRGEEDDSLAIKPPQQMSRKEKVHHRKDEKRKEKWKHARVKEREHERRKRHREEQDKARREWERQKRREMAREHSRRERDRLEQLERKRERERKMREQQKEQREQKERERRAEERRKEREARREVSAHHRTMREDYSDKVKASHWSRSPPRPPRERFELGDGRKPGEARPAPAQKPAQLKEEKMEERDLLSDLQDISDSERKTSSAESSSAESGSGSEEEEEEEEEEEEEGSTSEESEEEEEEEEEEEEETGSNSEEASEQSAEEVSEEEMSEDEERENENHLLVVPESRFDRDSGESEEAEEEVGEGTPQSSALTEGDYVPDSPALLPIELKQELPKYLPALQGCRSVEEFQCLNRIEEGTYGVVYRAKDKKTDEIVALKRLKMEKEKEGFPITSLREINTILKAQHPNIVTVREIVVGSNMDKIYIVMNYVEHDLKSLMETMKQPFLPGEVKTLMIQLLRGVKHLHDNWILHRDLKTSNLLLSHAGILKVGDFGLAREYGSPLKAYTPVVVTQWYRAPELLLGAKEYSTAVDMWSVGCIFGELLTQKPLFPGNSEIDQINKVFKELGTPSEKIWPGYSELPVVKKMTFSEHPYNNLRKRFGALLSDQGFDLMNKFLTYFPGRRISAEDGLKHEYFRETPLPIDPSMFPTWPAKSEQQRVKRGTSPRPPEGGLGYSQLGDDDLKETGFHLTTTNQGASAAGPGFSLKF
UniProt Q9H0K1, sequence (whole entry, looked up): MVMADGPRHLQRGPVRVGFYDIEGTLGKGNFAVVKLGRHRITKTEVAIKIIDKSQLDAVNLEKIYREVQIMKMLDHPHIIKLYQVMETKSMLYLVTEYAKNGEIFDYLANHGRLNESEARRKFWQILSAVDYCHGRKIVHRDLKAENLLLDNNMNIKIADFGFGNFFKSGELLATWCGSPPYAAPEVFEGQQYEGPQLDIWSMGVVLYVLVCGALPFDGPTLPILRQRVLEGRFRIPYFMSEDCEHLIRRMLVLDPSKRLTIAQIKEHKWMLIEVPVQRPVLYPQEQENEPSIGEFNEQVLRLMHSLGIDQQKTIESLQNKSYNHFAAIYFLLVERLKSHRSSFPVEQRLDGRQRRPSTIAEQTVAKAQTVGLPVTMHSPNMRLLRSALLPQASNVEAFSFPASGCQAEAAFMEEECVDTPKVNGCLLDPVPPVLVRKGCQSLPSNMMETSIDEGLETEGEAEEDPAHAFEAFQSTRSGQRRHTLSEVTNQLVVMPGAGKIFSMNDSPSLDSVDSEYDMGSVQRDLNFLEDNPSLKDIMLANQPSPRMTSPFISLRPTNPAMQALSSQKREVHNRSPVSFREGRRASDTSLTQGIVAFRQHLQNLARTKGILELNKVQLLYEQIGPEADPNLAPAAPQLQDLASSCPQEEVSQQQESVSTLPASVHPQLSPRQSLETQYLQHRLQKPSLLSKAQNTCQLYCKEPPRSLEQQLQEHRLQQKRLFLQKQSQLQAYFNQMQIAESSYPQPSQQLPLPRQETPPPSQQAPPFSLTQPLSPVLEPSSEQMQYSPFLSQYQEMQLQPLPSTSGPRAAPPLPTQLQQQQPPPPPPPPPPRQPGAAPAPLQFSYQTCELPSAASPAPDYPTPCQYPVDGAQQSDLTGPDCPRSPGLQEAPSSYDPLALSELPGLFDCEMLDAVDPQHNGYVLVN
UniProt O75460, sequence (whole entry, looked up): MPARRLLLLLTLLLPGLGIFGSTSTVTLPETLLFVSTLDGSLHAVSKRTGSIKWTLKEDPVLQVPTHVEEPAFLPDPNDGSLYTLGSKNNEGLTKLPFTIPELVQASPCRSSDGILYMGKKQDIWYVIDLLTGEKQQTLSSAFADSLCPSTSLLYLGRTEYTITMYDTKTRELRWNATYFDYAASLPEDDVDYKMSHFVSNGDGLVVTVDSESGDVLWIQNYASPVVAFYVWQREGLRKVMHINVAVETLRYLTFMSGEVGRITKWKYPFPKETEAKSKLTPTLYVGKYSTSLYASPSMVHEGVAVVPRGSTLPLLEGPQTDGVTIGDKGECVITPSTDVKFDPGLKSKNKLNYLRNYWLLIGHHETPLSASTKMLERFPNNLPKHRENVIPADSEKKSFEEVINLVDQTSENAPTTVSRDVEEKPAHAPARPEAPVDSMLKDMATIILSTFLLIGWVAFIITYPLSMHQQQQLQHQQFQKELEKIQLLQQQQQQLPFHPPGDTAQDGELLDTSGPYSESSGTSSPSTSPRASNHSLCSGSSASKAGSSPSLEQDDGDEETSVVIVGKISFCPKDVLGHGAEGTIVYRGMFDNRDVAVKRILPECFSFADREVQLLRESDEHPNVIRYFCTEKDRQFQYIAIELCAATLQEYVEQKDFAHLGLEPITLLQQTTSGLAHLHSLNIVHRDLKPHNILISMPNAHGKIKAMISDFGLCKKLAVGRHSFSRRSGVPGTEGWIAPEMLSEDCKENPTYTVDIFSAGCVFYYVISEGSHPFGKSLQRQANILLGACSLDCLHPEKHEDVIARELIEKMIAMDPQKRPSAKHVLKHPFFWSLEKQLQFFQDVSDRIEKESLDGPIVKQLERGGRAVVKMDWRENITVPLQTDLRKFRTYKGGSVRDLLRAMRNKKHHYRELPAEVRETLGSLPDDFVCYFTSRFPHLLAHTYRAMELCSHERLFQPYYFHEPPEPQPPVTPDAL
UniProt Q9H1R3, sequence (whole entry, looked up): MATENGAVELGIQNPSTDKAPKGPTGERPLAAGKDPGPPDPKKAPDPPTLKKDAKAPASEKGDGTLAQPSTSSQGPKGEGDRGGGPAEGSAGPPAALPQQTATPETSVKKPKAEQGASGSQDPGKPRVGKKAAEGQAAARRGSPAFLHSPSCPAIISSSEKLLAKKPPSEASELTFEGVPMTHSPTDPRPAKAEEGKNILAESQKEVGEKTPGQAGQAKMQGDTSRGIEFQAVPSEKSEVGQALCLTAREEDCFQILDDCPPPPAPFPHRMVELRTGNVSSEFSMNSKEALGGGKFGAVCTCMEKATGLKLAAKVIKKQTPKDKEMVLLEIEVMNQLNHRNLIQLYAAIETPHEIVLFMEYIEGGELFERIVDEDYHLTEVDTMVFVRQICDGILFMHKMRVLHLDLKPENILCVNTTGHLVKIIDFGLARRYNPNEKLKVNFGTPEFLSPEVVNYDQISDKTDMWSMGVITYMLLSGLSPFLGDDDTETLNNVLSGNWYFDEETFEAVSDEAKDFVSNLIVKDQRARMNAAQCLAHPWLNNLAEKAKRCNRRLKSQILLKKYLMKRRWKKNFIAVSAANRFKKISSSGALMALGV

Sample 1 — observed: enzyme activity; action: inhibitor; concentration: 0.5 µM; baseline: control; quantity: remaining activity
Target: Dual serine/threonine and tyrosine protein kinase (DSTYK, Homo sapiens, UniProt Q6XUX3)
Target sequence (Q6XUX3 1-929): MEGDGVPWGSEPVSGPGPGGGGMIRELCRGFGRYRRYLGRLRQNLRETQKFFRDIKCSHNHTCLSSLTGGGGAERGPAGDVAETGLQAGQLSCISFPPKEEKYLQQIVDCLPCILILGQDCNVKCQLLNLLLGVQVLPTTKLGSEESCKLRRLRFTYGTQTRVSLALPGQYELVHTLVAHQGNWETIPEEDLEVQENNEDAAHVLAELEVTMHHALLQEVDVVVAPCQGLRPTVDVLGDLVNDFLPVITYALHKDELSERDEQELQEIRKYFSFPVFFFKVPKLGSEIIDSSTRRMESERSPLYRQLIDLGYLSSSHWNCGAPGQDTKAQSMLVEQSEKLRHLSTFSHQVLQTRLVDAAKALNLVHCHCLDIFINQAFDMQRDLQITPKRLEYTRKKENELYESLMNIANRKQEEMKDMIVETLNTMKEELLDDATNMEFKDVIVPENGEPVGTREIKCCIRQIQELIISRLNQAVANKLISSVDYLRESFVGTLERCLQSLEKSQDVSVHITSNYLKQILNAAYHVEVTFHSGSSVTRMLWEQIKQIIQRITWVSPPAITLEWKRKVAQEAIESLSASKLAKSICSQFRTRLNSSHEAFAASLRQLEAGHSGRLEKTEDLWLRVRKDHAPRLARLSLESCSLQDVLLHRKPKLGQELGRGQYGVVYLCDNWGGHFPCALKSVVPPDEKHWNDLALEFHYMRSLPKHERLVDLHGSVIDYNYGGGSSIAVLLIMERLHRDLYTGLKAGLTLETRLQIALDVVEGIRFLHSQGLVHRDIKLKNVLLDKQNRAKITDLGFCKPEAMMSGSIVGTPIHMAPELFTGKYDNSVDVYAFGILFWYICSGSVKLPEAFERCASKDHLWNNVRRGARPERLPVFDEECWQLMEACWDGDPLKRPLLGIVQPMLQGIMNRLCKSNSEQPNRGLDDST
SMILES = NCCNc1ncc(C(N)=O)c(Nc2cccc(C(F)(F)F)c2)n1; value = 93.1%
SMILES = CO[C@H]1C[C@@H]2CC[C@@H](C)[C@@](O)(O2)C(=O)C(=O)N2CCCC[C@H]2C(=O)O[C@H]([C@H](C)C[C@@H]2CC[C@@H](O)[C@H](OC)C2)CC(=O)[C@H](C)/C=C(\C)[C@@H](O)[C@@H](OC)C(=O)[C@H](C)C[C@H](C)/C=C/C=C/C=C/1C; value = 107%
SMILES = Nc1ccc2ncnc(NCCc3ccc(Oc4ccccc4)cc3)c2c1; value = 101%
SMILES = Cc1cccc(-c2[nH]c(C(C)(C)C)nc2-c2ccc3c(c2)OCO3)n1; value = 89.1%
SMILES = COc1cc2nccc(Oc3ccc(NC(=S)NC(=O)c4ccccc4C)cc3)c2cc1OC; value = 112%
SMILES = CCOC(=O)c1c(C)[nH]c(/C=C2\C(=O)Nc3ccccc32)c1C; value = 90.8%
SMILES = N#CC(C#N)=C(N)/C(C#N)=C/c1ccc(O)cc1; value = 92.9%

Sample 2 — host: mouse; medium: microsomes or S9; concentration: 2 µM; time: 0.5 h; quantity: remaining compound
Compound = O=c1c2ccccc2nc(-c2ccco2)n1-c1nc2ccccc2s1; value = 34.4%
Compound = Cn1cc(C(NC(=O)c2cc3sccc3[nH]2)[C@H]2C[C@@H](O)C2)cn1 (stereo partly shown); value = 74.5%
Compound = O=c1cccc2n1CC1CC(C2)N(c2nc(N3CCCCC3)nc(N3CCCCC3)n2)C1 (stereo not shown); value = 5.89%
Compound = COCCn1c(CCNC(=O)C2CCCN(c3ncccn3)C2)nc2ccccc21 (stereo not shown); value = 0.383%
Compound = COC(=O)Nc1ccc(-c2ccc(C)nc2N)cc1; value = 60.7%
Compound = Cc1ccc(N2N3C(=O)OC4(C)CCC(C2(C)C)C34C)cc1 (stereo not shown); value = 0.244%
Compound = N#Cc1nnc2ccccc2c1Oc1ccc2ncccc2c1; value = 1.19%

Sample 3 — observed: cell-free assay; technique: competition with immobilised ligand; concentration: 1 µM; quantity: remaining binding
SMILES: O=C(NC[C@@H]1[C@H]2CN(C(=O)OCc3cc(C(F)(F)F)cc(C(F)(F)F)c3)C[C@@H]12)c1ccc2[nH]nnc2c1
target = Myosin light chain kinase 2, skeletal/cardiac muscle (MYLK2, Homo sapiens, UniProt Q9H1R3); value = 97%
target = Serine/threonine-protein kinase 36 (STK36, Homo sapiens, UniProt Q9NRP7); value = 100%
target = Serine/threonine-protein kinase/endoribonuclease IRE1 (ERN1, Homo sapiens, UniProt O75460); value = 77%
target = Dual specificity tyrosine-phosphorylation-regulated kinase 1B (DYRK1B, Homo sapiens, UniProt Q9Y463); value = 86%
target = Cyclin-dependent kinase 11A (CDK11A, Homo sapiens, UniProt Q9UQ88); value = 100%
target = MAP/microtubule affinity-regulating kinase 4 (MARK4, Homo sapiens, UniProt Q96L34); value = 94%
target = Serine/threonine-protein kinase SIK2 (SIK2, Homo sapiens, UniProt Q9H0K1); value = 100%

Sample 4 — observed: binding; action: competitor; technique: NanoBRET; cell line: HEK293; quantity: normalized BRET
SMILES: CC(C)C(=O)N1CCN(c2nc(OC[C@@H]3CCCN3C)nc3c2CCN(c2cccc4cccc(Cl)c24)C3)C[C@@H]1CC#N
target = GTPase KRas (KRAS, Homo sapiens, UniProt P01116, Q61H); concentration = 33.3 µM; value = 64.9% and 49.1% and 56.1%
target = GTPase KRas (KRAS, Homo sapiens, UniProt P01116, Q61L); concentration = 11.1 µM; value = 87.9% and 82.7% and 87.5%
target = GTPase KRas (KRAS, Homo sapiens, UniProt P01116, G12D); concentration = 15.2 nM; value = 95.6% and 94.9% and 89.2%
target = GTPase KRas (KRAS, Homo sapiens, UniProt P01116, G13D); concentration = 1.24 µM; value = 97.6% and 91.6% and 92.2%

Excerpt of the above (sample 3):
target = Serine/threonine-protein kinase 36 (STK36, Homo sapiens, UniProt Q9NRP7); value = 100%
target = Serine/threonine-protein kinase/endoribonuclease IRE1 (ERN1, Homo sapiens, UniProt O75460); value = 77%
